Measured values pooled from the literature.
Lines come from different studies, so protocols differ. Values joined by “and” are separate records of one study, mostly repeats; a detail may differ.
MAP3K20: Mitogen-activated protein kinase kinase kinase 20 (MAP3K20, Homo sapiens, UniProt Q9NYL2)
UniProt Q9NYL2, sequence (whole entry, looked up): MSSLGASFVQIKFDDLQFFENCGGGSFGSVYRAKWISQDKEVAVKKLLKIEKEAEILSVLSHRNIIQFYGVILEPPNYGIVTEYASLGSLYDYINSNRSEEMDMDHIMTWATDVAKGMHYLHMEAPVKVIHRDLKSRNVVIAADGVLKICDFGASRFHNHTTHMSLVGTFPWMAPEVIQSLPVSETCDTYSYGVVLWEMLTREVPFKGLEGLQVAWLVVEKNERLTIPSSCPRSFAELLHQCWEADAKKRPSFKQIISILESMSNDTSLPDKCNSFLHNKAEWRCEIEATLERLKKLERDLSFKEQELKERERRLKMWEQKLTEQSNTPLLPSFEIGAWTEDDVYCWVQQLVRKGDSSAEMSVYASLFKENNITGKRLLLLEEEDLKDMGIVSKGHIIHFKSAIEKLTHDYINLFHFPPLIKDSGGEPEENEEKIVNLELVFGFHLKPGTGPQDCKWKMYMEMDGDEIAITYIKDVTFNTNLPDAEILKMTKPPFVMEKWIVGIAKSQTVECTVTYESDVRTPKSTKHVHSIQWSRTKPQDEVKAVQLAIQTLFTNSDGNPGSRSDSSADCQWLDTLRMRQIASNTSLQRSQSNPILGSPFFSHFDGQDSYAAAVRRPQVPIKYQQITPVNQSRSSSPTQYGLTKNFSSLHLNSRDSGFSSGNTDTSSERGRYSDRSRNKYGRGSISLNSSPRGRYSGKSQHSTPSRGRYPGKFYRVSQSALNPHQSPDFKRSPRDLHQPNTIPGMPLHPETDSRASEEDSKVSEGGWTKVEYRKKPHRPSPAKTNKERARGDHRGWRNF
MAP3K20 Cys22: Mitogen-activated protein kinase kinase kinase 20, Cys22 (MAP3K20, Homo sapiens, UniProt Q9NYL2)

| SMILES | target | assay | test system | conditions | scale | quantity | value |
| --- | --- | --- | --- | --- | --- | --- | --- |
| CCN1CCN(Cc2ccc(NC(=O)c3ccc(C)c(NC(=O)c4cncc(-c5cccs5)c4)c3)cc2C(F)(F)F)CC1 | MAP3K20 | binding, competition with immobilised ligand | – | 1 µM | – | remaining binding | 0% |
| C=CC(=O)Nc1cc(-c2nn(C3CCN(CCNC(=O)[C@H](C)CCC45CC6CC(CC(C6)C4)C5)CC3)c3ncnc(N)c23)ccc1Oc1ccccc1 | MAP3K20 | inhibitor, KiNativ profiling | biochemical | 2 µM | – | inhibition | 24.9% |
| CCCCCC(O)/C=C/C=O (stereo not drawn) | MAP3K20 Cys22 | competitive isoTOP-ABPP | proteome, soluble, MDA-MB-231 | 100 µM, 60 min, together with: iodoacetamide probe | reference: DMSO over compound-treated, higher = stronger cysteine blockade | isoTOP-ABPP competition ratio | 15 |
| NC(=O)C[C@H]1CCc2sc3ncnc(O[C@H]4CC[C@H](N5CCOCC5)CC4)c3c21 | MAP3K20 | enzyme activity, inhibitor | – | 10 µM | – | inhibition | 5% |
| COc1cc(Nc2nc(C)cc(-c3cnn4nc(OC)ccc34)n2)cc(C(F)(F)F)c1 | MAP3K20 | binding, competition with immobilised ligand | – | 1 µM | – | remaining binding | 77% |
| Cc1nc2c(F)cc(-c3nc(Nc4ccc(CNC(=O)CCCCCCC(=O)NO)cc4)ncc3F)cc2n1C(C)C | MAP3K20 | enzyme activity, inhibitor | – | 1 µM | – | inhibition | 50% |
| CNC(=O)C[C@H](Cc1ccc(C#N)cc1)NC(=O)c1cc(-c2ccc(CN[C@H](C)c3ccc(C)cc3)o2)ccc1Cl | MAP3K20 | enzyme activity, inhibitor | – | 1 µM | – | activity vs control | 111% |
| CS(=O)(=O)Nc1cccc(-c2csc3cnc(Nc4ccc(N5CCN(CCCCCOc6cccc7c6C(=O)N(C6CCC(=O)NC6=O)C7=O)CC5)cc4)nc23)c1 (stereo not drawn) | MAP3K20 | probe labelling, inhibitor, KiNativ chemoproteomics | MOLT-4 | 1 µM | – | inhibition | 2.38% |
| C[C@H]1CN(C(=O)c2cn(-c3ccnc(N)n3)c3cc(C#CC4(O)CCCCC4)ccc23)CCN1 | MAP3K20 | cell-free assay, TR-FRET | – | 1 µM | – | inhibition | -1% |
| Nc1ncc2c(n1)-c1c([nH]c3ccc(C4=CCOCC4)cc13)CCC2 | MAP3K20 | binding, competition with immobilised ligand | – | 1 µM | – | remaining binding | 100% |
| CN1CCN(Cc2ccc(-c3ccc(CO[C@H]4CCC[C@@H]4NC(=O)c4cc(-c5cnn(C)c5)cnc4N)cc3)cc2)CC1 | MAP3K20 | enzyme activity, inhibitor | – | 0.1 µM | – | inhibition | 0% |
| N[C@H]1CC[C@H](Nc2nccc(-c3cccnc3Oc3ccc(NC(=O)NC4CC4)c4ccccc34)n2)CC1 | MAP3K20 | kinobead competition pulldown | HEK293/HCT116 lysate mixture | 10 µM, 1 h, 4 °C | lower = stronger competition | log2 LFQ intensity | 22.9 and 23.1 and 22.8 |
| O=C(Cc1ccc(OCc2ccccc2)cc1)NC1(C(=O)O)CCN(C(=O)c2ccc(-c3cccc(Cl)c3)cc2)CC1 | MAP3K20 | enzyme activity, inhibitor | – | 10 µM | – | activity vs control | 93% |
| CCCCCC=CC=C1C(=O)C=CC1CC=CCCCC(=O)O (stereo not drawn) | MAP3K20 Cys22 | competitive isoTOP-ABPP | proteome, soluble, MDA-MB-231 | 100 µM, 60 min, together with: iodoacetamide probe | reference: DMSO over compound-treated, higher = stronger cysteine blockade | isoTOP-ABPP competition ratio | 3.6 |
| Cc1ccc(-c2c(/C=C(\C#N)C(=O)NC(C)C)n(CCCO)c3ncnc(N)c23)cc1 | MAP3K20 | cell-free assay, competition with immobilised ligand | – | 1 µM | – | remaining binding | 100% |

Repeated from above:
| SMILES | target | assay | test system | conditions | scale | quantity | value |
| --- | --- | --- | --- | --- | --- | --- | --- |
| C[C@H]1CN(C(=O)c2cn(-c3ccnc(N)n3)c3cc(C#CC4(O)CCCCC4)ccc23)CCN1 | MAP3K20 | cell-free assay, TR-FRET | – | 1 µM | – | inhibition | -1% |
| Nc1ncc2c(n1)-c1c([nH]c3ccc(C4=CCOCC4)cc13)CCC2 | MAP3K20 | binding, competition with immobilised ligand | – | 1 µM | – | remaining binding | 100% |
